Published values collected from several papers.
Numbered parts are unrelated; each lists some results of a single study. Changes are numbered by the printed parent chain.

Study 1 — technique: protein-binding microarray; form: double-stranded DNA, one strand shown; sample: in vitro; concentration: 940 nM top; setting: 60-bp whole probe; added: salmon DNA 0.4 mg/ml; baseline: random background probes; direction: higher = stronger binding; shared flanks, not repeated: GCCTAGCAC … GTCTTGATTCGCTTGACGCTGCTG
Target: Interferon regulatory factor 5, full length, phosphomimetic (IRF5, Homo sapiens, UniProt Q13568-2, residues 1-514, S451D/S453D/S456D/S462D)
Sequence | fitted relative affinity
GCACCTCTAGACTCTAAATTCGTGCTA | -0.0296 z-score
TTAGGACTGGGGTATGGGTTAGTGCTA | 0.202 z-score
TTAGGTATCGGGTTCGGTTAGTGCTAG | 5.66 z-score
TTAGATATCGCGTATCGATTAGTGCTA | 1.3 z-score
GGGCACGTTGTTTAACTTCTGTGCTAG | -0.162 z-score
TTAGGTTTCGACTATTGGTTAGTGCTA | 9.19 z-score
GAGGGTTTCCTTTCCCTGACGTGCTAG | 1.19 z-score
TTTTGTTGTTTTTTGGTTTCGTGCTAG | 4.03 z-score
TTAGGACTGCTACTGCTTGAGTGCTAG | -0.32 z-score
TTAGGTATCGGTCTCGGGTAGTGCTAG | 9.03 z-score
GTAGGCTTCTATGTAGTTGAGTGCTAG | -0.475 z-score
GACGGTTTCGGTTTCGGGAAGTGCTAG | 15.1 z-score
TTAGATCTCAGTTTGGATTAGTGCTAG | 0.115 z-score
TCAGGCTTCATGTTGCTCACTGTGCTA | -0.402 z-score
GACGATCTCAGATTCGAGACGTGCTAG | 0.057 z-score
TTCTCTCTGGCCCTCCTGAGGTGCTAG | 0.962 z-score
GACGGCATCCTACTGCTGACGTGCTAG | -0.273 z-score
GAGGGACTGGGTATCGGGACGTGCTAG | 1.18 z-score
AGTGGAGTTCATTGTCATTTGTGCTAG | -0.208 z-score
TCACTATTATATATATCACTGTGCTAG | 0.839 z-score
GACGGTATCGCTTTCGGGACGTGCTAG | 5.58 z-score
TTAGGTCTCCTACTGATTTAGTGCTAG | -0.117 z-score
TTAGATTTCAAACTGGATTAGTGCTAG | -0.456 z-score
TCAACACTCACCATGGCACTGTGCTAG | 0.125 z-score
GACAATTTCAGACTGGAGACGTGCTAG | -0.45 z-score

Study 2 — technique: RNA Bind-n-Seq; form: RNA; sample: in vitro; concentration: 200 nM; setting: whole 134-nt RNA, ends assumed; added: 150 mM KCl; baseline: input library; direction: higher = stronger binding
Target: Ras GTPase-activating protein-binding protein 1, full length (G3BP1, Homo sapiens, UniProt Q13283)
UniProt Q13283, sequence (whole entry, looked up): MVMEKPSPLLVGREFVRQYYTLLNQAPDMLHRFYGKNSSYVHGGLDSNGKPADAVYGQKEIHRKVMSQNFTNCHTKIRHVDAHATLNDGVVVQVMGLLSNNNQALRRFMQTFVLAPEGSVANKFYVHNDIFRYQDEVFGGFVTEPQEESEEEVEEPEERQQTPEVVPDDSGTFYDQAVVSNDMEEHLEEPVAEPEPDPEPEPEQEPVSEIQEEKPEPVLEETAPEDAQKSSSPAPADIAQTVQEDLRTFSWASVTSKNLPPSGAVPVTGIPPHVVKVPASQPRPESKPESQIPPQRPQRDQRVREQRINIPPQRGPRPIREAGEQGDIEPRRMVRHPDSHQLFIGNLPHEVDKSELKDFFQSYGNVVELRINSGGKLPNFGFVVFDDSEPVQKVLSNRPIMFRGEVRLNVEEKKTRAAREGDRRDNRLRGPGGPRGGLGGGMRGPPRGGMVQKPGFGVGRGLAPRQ
Sequence | log2 enrichment
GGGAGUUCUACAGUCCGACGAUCGCAGGAAGUAAAAACAAAUGGAAAUGCUUCGGAUAGUGGCAGGGGUGGCGGUUGCUAAGGAAAGGGUGGGAUGGGAGUGGGUAAAGAGUUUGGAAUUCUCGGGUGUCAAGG | 1.05
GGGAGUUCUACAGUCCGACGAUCGCAGGAAGUAAAAACAAAUGGAAAUGCUUCGUAUAGUGGCAGGGGUGGGGGUUGCUAAGGAAAGGGUGGGAUGGGAGUGGGUAAAGAGUUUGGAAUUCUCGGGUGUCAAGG | 0.91
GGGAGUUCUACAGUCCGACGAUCUCAAGUCCUGUGCUACACAUCGUAUGUACCGAAUCGGGAAAAAGGGAGGGAGGGAAAGUAUUAUGUUACGCCGUUCGGAUCUGCACUUCCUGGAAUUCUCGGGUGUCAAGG | 1.06
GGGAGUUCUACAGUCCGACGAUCUCCUGUGCUACACAUCGUAUGUACCGAAUCGGGGUUUUUGGGGAAAGGGGAAAAAGGGGAAAGUAUUAUGUUACGCCGUUCGGAUCUGCAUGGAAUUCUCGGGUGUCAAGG | 0.664
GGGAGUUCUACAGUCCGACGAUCAAGUCCUGUGCUACACAUCGUAUGUACCGAAUCGGUUUUGGGGUUUUGGGUUUUGGGAAAGUAUUAUGUUACGCCGUUCGGAUCUGCACUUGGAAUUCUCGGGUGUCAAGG | -0.629
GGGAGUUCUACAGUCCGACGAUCCCUGUGCUACACAUCGUAUGUACCGAAUCGGGGUUUUUGGGGAAAAAAAGGGGUUUGGGGAAAGUAUUAUGUUACGCCGUUCGGAUCUGCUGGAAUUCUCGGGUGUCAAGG | 0.327
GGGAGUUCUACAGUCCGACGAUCUGGGAGGUGGAUUUUGUUUAUUUUUUUAGCUCAUCUCCAGGGGUGGGAAUUUUUUUUUAAUAUGUGUCAUGAAUAAAGUUGUUUUUGAAAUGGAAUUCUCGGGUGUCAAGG | 0.229
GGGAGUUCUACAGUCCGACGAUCCCUCAAGUCCUGUGCUACACAUCGUAUGUACCGAAUCGGGGAGGAGGGGAGGGAAAGUAUUAUGUUACGCCGUUCGGAUCUGCACUUCCAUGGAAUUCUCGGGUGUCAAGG | 1.13
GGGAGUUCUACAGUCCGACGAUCCAAGUCCUGUGCUACACAUCGUAUGUACCGAAUCGGUGGAAAAAGGAAAAAAAGGAAAGUAUUAUGUUACGCCGUUCGGAUCUGCACUUCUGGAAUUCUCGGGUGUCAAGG | -0.826
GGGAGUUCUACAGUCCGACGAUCUCAAGUCCUGUGCUACACAUCGUAUGUACCGAAUCGGGAAGGGAAGGGGAAGGGAAAGUAUUAUGUUACGCCGUUCGGAUCUGCACUUCCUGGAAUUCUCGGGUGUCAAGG | 1.19

Study 3 — target: CREBRF, bZIP domain (human); technique: DHFR protein complementation; sample: yeast; baseline: wild-type JUN-FOS pair; direction: higher = stronger binding
Setting: single substitutions, most at no-binding floor
Parent: JUN, bZIP domain (human); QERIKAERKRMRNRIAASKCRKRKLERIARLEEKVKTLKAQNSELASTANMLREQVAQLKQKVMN; partner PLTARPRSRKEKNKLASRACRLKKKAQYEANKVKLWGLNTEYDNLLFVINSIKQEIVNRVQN
Variant | binding fitness [natural log]
V56Q | -1.51
L31C | -1.52
S43F | -1.46
Q55W | -1.48
E33N | -1.54
V56L | -1.54
K39V | -1.48
M51R | -1.44
Q55S | -1.39
S47K | -1.41
A40E | -1.48
K36S | -1.54
R53H | -1.59
Q41I | -1.56
E32H | -1.58

Study 4 — target: CCNA1, cyclin fold, Cln2 fusion (human); technique: yeast growth competition, sequencing; sample: yeast; setting: weak parent motif; baseline: not given; direction: higher = stronger binding
Parent: CDKN1A docking peptide (human); SKACRRLFGPVDS; partner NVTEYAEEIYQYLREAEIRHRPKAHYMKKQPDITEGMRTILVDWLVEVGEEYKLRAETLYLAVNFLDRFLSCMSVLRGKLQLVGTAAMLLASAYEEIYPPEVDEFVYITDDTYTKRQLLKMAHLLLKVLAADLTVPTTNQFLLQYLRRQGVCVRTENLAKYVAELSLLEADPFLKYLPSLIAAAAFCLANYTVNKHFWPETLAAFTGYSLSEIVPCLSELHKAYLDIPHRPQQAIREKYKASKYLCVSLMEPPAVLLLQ
Variant | normalised enrichment score
SKACRRLFGPVDA [S13A] | 0.625
SKACRRLFPPVDS [G9P] | 1.12
SKACRRLFGPVTS [D12T] | 0.559
SKACRRLIGPVDS [F8I] | 0.273
SKACRHLFGPVDS [R6H] | 0.208
SKACRRLFGPVIS [D12I] | 0.376
SKAQRRLFGPVDS [C4Q] | 0.428
SKADRRLFGPVDS [C4D] | 0.179
SQACRRLFGPVDS [K2Q] | 0.379
SLACRRLFGPVDS [K2L] | 0.301
SKAWRRLFGPVDS [C4W] | 0.343
SKSCRRLFGPVDS [A3S] | -0.174
SKAVRRLFGPVDS [C4V] | 0.238
SKACRRLFGPADS [V11A] | 0.697
SKACRRLFGPVCS [D12C] | 0.142
SKACRYLFGPVDS [R6Y] | 0.25
SKACRRLFGPRDS [V11R] | 0.379
SKACRRLWGPVDS [F8W] | -0.195
SKACRRLFSPVDS [G9S] | 0.749
SKACRRLFGRVDS [P10R] | 0.695
SKACRRLFGPSDS [V11S] | 0.617
SKACRRMFGPVDS [L7M] | 0.289
SKALRRLFGPVDS [C4L] | 0.213
SKACRRLFGPVMS [D12M] | 0.601
SKACVRLFGPVDS [R5V] | -0.0309

Further values, each from its own experiment
Molecule | target | assay | test system | conditions | how to read | endpoint | result
PhoQ, residues 284 288 289 292 302 303 GTAMQF | PhoP, residues 12 14 15 18 19 SQCLL (Escherichia coli, UniProt P23836) | Sort-seq, measured: YFP reporter | E. coli | PhoQ-PhoP variant library, added: 10 µM Mg2+ | baseline: high Mg2+ state, higher = stronger signaling | fold induction | 2.76

For quick reference, copied from above (study 3):
Variant | binding fitness [natural log]
Q55W | -1.48
E33N | -1.54
V56L | -1.54
K39V | -1.48
M51R | -1.44
Q55S | -1.39
